{"data": "Measured values from different studies", "DDB1/DCAF12": "DDB1/DCAF12 (Homo sapiens, UniProt Q16531+Q5T6F0)", "ywle": "Protein-arginine-phosphatase (ywle, Geobacillus stearothermophilus, UniProt S0F332)", "Tripartite terminase subunit 3 C-terminal nuclease domain": "Tripartite terminase subunit 3, C-terminal nuclease domain (Human betaherpesvirus 5, UniProt P16732)", "Genome polyprotein NS2B-NS3 protease": "Genome polyprotein, NS2B-NS3 protease (ZIKV, UniProt A0A024B7W1)", "note": "Lines come from different studies, so protocols differ. Numbers after ± are the reported error.", "chain of UniProt P16732 (whole entry, looked up)": "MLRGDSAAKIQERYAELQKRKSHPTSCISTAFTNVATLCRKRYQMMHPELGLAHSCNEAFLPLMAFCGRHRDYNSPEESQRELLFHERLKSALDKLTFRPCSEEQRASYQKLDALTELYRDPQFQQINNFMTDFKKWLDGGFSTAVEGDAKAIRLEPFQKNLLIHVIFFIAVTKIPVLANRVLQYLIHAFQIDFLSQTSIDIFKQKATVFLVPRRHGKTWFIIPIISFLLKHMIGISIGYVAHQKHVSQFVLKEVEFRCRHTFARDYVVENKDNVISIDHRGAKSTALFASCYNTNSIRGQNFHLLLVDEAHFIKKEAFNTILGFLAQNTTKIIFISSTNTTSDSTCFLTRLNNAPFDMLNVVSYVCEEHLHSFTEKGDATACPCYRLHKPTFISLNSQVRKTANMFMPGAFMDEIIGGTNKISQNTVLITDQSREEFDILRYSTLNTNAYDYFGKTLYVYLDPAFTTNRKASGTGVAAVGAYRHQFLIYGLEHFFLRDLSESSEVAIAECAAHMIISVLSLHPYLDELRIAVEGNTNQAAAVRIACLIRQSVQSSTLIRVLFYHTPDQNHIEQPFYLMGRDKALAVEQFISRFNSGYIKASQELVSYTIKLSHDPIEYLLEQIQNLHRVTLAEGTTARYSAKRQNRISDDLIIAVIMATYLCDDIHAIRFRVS", "chain of UniProt Q5T6F0 (whole entry, looked up)": "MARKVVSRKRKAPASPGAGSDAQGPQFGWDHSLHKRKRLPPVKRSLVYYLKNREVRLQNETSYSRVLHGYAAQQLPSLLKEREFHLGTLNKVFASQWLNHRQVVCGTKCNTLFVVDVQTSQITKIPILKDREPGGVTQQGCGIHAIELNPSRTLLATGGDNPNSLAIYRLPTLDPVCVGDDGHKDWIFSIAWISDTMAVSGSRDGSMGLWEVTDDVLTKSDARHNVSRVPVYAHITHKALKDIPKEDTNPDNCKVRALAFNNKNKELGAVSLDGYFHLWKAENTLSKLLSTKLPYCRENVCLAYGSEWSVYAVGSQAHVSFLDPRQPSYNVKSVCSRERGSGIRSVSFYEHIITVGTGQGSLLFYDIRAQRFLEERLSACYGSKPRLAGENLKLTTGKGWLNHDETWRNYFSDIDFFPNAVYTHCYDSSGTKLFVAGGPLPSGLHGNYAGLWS", "chain of UniProt S0F332 (whole entry, looked up)": "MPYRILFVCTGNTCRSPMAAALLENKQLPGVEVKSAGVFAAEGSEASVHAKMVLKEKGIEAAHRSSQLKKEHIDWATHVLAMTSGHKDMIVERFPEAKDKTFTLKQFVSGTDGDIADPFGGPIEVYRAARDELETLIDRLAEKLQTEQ", "chain of UniProt Q16531 (whole entry, looked up)": "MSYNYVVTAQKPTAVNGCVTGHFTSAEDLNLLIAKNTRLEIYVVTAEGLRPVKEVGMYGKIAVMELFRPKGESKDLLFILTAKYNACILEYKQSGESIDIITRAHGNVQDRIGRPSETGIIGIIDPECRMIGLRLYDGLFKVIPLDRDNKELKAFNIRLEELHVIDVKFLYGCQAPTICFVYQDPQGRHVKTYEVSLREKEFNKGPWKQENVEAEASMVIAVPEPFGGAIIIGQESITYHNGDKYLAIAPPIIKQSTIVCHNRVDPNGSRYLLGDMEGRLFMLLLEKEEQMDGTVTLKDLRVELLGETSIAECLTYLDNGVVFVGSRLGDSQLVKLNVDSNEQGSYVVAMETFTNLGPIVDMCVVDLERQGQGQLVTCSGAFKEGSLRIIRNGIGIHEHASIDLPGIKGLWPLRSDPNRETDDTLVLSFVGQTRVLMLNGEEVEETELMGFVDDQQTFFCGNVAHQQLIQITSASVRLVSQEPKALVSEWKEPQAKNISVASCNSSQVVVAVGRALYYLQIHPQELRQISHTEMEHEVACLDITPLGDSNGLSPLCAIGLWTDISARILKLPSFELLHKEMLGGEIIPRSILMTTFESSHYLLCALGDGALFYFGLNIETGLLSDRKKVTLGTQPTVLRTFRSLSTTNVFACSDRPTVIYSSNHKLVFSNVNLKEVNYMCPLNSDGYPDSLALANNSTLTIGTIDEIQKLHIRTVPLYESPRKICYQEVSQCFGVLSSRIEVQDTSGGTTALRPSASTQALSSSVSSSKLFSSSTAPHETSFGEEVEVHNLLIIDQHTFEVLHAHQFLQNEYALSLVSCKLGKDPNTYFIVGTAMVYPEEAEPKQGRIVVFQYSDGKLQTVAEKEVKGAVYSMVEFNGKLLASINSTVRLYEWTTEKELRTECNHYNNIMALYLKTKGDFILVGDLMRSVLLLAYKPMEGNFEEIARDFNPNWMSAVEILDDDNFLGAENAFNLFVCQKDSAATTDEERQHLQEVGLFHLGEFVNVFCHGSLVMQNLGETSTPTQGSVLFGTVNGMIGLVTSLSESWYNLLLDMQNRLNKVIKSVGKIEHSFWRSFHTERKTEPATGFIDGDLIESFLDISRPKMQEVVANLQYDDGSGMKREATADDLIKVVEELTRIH", "chain of UniProt Q96SW2 (whole entry, looked up)": "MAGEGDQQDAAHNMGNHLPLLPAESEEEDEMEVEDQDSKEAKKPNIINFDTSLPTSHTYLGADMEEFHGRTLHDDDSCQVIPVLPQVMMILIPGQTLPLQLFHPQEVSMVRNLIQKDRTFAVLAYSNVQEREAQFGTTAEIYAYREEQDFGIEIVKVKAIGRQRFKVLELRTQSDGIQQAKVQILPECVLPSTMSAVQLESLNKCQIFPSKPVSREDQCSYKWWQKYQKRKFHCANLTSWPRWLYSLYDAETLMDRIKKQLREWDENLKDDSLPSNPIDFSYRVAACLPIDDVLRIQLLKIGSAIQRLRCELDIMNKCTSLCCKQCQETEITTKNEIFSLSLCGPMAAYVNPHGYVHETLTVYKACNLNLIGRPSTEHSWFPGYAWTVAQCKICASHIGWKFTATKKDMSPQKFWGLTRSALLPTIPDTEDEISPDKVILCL", "chain of UniProt Q9JLB5 (whole entry, looked up)": "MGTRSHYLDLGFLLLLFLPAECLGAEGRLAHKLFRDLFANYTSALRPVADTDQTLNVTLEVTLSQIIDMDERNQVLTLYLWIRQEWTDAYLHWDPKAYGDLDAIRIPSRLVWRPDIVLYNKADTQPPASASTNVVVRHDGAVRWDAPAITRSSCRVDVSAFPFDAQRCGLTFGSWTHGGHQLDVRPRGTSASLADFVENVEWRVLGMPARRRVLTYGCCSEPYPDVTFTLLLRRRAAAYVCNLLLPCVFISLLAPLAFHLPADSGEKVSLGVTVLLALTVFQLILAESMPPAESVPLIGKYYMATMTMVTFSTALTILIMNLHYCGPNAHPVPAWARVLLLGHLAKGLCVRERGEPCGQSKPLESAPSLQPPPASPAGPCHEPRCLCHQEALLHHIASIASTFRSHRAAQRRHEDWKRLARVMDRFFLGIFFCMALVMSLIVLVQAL", "chain of UniProt Q07794 (whole entry, looked up)": "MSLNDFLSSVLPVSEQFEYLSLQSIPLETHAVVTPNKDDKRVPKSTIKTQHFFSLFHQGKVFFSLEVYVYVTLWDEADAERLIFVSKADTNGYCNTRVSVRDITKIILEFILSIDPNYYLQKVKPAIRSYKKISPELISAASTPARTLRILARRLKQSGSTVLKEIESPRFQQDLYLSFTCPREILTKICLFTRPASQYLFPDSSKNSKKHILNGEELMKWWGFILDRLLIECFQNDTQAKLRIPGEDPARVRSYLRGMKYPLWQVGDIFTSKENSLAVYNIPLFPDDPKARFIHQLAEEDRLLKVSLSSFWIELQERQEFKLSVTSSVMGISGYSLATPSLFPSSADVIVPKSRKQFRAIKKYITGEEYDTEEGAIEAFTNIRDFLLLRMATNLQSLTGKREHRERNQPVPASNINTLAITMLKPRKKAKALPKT", "chain of UniProt P43144 (whole entry, looked up)": "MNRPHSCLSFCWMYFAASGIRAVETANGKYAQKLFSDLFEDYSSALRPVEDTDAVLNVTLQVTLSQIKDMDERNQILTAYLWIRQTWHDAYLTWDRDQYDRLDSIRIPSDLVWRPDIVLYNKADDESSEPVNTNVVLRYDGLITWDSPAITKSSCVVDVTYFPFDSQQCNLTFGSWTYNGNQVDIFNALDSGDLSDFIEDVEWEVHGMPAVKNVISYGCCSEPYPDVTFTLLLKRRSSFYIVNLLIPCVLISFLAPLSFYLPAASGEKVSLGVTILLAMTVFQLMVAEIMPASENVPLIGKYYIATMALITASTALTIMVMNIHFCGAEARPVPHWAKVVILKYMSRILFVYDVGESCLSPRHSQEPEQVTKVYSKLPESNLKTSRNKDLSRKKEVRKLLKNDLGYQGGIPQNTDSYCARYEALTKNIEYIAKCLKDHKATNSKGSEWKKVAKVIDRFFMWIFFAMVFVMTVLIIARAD", "chain of UniProt O60911 (whole entry, looked up)": "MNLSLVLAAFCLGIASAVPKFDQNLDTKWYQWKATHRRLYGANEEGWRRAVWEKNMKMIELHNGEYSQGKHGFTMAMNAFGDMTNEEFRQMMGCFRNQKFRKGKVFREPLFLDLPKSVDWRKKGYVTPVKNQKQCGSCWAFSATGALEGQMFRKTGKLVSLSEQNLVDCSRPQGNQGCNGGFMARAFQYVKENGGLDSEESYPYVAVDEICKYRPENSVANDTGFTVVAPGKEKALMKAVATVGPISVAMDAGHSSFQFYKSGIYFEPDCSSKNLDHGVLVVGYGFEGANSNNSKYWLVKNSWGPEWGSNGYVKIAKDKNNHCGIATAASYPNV", "chain of UniProt Q02768 (whole entry, looked up)": "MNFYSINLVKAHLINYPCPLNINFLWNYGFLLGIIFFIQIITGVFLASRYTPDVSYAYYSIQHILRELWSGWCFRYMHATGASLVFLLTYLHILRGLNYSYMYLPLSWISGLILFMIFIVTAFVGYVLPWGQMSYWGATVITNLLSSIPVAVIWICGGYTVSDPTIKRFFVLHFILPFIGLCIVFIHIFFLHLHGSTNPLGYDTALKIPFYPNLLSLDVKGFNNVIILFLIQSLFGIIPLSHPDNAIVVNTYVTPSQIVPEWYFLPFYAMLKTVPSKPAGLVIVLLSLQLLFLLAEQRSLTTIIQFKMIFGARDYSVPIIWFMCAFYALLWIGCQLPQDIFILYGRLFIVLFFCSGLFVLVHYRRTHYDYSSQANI"}
{"SMILES": "CC[C@H](C)[C@H](NC(=O)[C@@H](N)CC(=O)O)C(=O)N[C@@H](CCCNC(=N)N)C(=O)N[C@@H](CCCCN)C(=O)N1CCC[C@H]1C(=O)NCC(=O)N[C@@H](CCC(=O)O)C(=O)N[C@@H](CO)C(=O)N[C@@H](CCC(=O)O)C(=O)N[C@@H](CC(=O)O)C(=O)O", "target or system": "DDB1/DCAF12", "test": "binding, TR-FRET competition", "endpoint": "IC50", "value": "222 µM"}
{"SMILES": "CC(C)[C@@H]1NC(=O)[C@H](Cc2ccccc2)NC(=O)[C@@H]2NC(=O)[C@H](Cc3ccccc3)NC(=O)[C@@H]3CCCN3C(=O)CNC(=O)[C@H](Cc3ccccc3)NC(=O)[C@@H]3CNCCCC[C@@H](C(=O)O)NC(=O)[C@@H]4NC(=O)[C@H](CC(N)=O)NC(=O)CNC(=O)[C@H]([C@@H](O)C(=O)O)NC(=O)[C@H](CSC[C@@H](NC(=O)[C@H](CCC(N)=O)NC(=O)[C@H](CCCCNC(=O)c5ccc(NN)nc5)NC(=O)[C@@H](N)CS[C@H]4C)C(=O)N[C@@H](CS[C@H]2C)C(=O)N3)NC1=O [technetium-99m labelled]", "system": "rat 45 min ischemia, 2 h reperfusion, blood", "endpoint": "half-life", "value": "11.3 min"}
{"SMILES": "COc1ccc2[nH]c3c(c2c1)CCN(C)CC3", "target or system": "Nicotinic acetylcholine receptor alpha9/alpha10 (Rattus norvegicus, UniProt P43144+Q9JLB5)", "test": "ACh-evoked current, antagonist, two-electrode voltage clamp", "system": "Xenopus laevis oocytes", "setting": "holding potential -80 mV, added: 100 µM acetylcholine", "endpoint": "IC50", "value": "13 ± 0.7 µM"}
{"SMILES": "[Cu+2]", "target or system": "ywle", "endpoint": "IC50", "value": "2.8 ± 0.15 µM"}
{"SMILES": "Cc1ccc(Nc2ccnc(N3CCC(C(=O)NCCCc4ccccc4)CC3)n2)cc1", "target or system": "Vero-E6", "test": "CellTiter-Glo ATP", "setting": "concentration not given, 72 h, retest 8-point duplicates", "how to read": "relative to: DMSO 0%, hyamine -100%, more negative, more toxic", "endpoint": "cytotoxicity efficacy", "value": "-33.4%"}
{"SMILES": "NCCOCC(=O)N1CCCC(C(=O)NCc2nc(-c3ccc(-c4ccc(F)cc4)cc3)cs2)C1 (stereo not shown)", "target or system": "20S proteasome (Plasmodium falciparum, UniProt A0A5K1K7U1+Q8I261+Q8IJT1)", "setting": "Succ-LLVY-AMC 0.5 µM, added: WLW-vs 3 µM", "endpoint": "IC50", "value": "0.079 µM"}
{"SMILES": "Sc1nc2ccccc2[nH]1", "target or system": "Histone acetyltransferase RTT109, with Vps75 (Saccharomyces cerevisiae, UniProt Q07794)", "test": "enzyme activity, inhibitor, HTS, CPM-based, dose response", "endpoint": "IC50", "value": "> 125 µM"}
{"SMILES": "O=c1[nH]c2ccsc2c(=O)n1O", "target or system": "Tripartite terminase subunit 3 C-terminal nuclease domain", "test": "endonuclease activity, inhibitor", "setting": "added: dsDNA substrate", "endpoint": "IC50", "value": "0.081 ± 0.04 µM"}
{"SMILES": "O=C1c2ccccc2C(=O)c2oc(-c3cccnc3)nc21", "target or system": "Ubiquitin carboxyl-terminal hydrolase 1 (USP1, Homo sapiens, UniProt O94782)", "test": "enzyme activity", "endpoint": "IC50", "value": "0.41 ± 0.08 µM"}
{"SMILES": "Cc1cc2cc(n1)-c1cnn(C)c1OCCC[C@@H](C)Cn1c(nc3ccc(CN4CCN(C)CC4)cc31)NC2=O", "target or system": "Receptor tyrosine-protein kinase erbB-2 (ERBB2, Homo sapiens, UniProt P04626)", "endpoint": "IC50", "value": "> 0.1 µM"}
{"SMILES": "O=C(O)CC[C@H](NC(=O)[C@H](CCC(=O)O)NC(=O)[C@H](CO)NC(=O)[C@H](CCC(=O)O)NC(=O)CNC(=O)[C@@H]1CCCN1)C(=O)O", "target or system": "DDB1/DCAF12", "test": "binding, TR-FRET competition", "endpoint": "IC50", "value": "15.6 µM"}
{"SMILES": "Cc1ccc(-c2nc(C[S+]([O-])CC(=O)N3CCN(c4ccc(Cl)cc4)CC3)c(C)o2)cc1 (stereo not shown)", "target or system": "Vero-E6", "test": "CellTiter-Glo ATP", "setting": "72 h, first round 5-point", "how to read": "relative to: DMSO 0%, hyamine -100%, more negative, more toxic", "endpoint": "maximum response", "value": "-17%"}
{"SMILES": "N=C(CS(=O)(=O)O)NCCCCCC(=O)NC(Cc1ccc(C(=O)c2ccccc2)cc1)C(N)=O (stereo not shown)", "target or system": "ywle", "endpoint": "IC50", "value": "0.5 ± 0.03 µM"}
{"SMILES": "CCOP(=O)(OCC)SCSCC", "target or system": "Acetylcholinesterase (ache, Electrophorus electricus, UniProt O42275)", "test": "enzyme activity, inhibitor", "endpoint": "IC50", "value": "2.6 ± 0.1 µM"}
{"SMILES": "COc1ncccc1-c1cnn2ccc(N3CCN(C(=O)OC(C)C)CC3)nc12", "target or system": "Estrogen receptor (ESR1, Homo sapiens, UniProt P03372)", "test": "liability screen", "endpoint": "IC50", "value": "> 150 µM"}
{"SMILES": "O=C(Nc1nc2nc(-c3ccccc3)cc(C(F)(F)F)c2s1)c1cc2ccccc2o1", "target or system": "Genome polyprotein NS2B-NS3 protease", "test": "inhibitor", "endpoint": "IC50", "value": "0.83 ± 0.05 µM"}
{"SMILES": "CC[C@H](C)[C@H](NC(=O)[C@H](CCSC)NC(=O)[C@H](CC(=O)O)NC(=O)[C@H](CCC(N)=O)NC(=O)[C@H](CC(C)C)NC(=O)[C@@H](N)CCC(=O)O)C(=O)N[C@@H](CC(N)=O)C(=O)O", "target or system": "Protein cereblon, with DDB1 (CRBN, Homo sapiens, UniProt Q96SW2)", "test": "binding, ligand, TR-FRET displacement", "endpoint": "IC50", "value": "4.33 µM"}
{"SMILES": "O=C(O)C(=O)O.[NH-][C@@H]1CCCC[C@H]1[NH-].[Pt+2]", "target or system": "human coronavirus OC43", "test": "virus-induced cell killing", "system": "MRC-5", "setting": "screen", "endpoint": "maximum inhibition", "value": "5.69%"}
{"SMILES": "COc1cc(Nc2ncc(F)c(Nc3ccc4c(n3)NC(=O)C(C)(C)O4)n2)cc(OC)c1OC", "target or system": "Cathepsin L2 (CTSV, Homo sapiens, UniProt O60911)", "endpoint": "IC50", "value": "> 10 µM"}
{"SMILES": "Cc1cc2c(F)c(Oc3ncnn4cc(OC[C@@H](C)O)c(C)c34)ccc2[nH]1", "target or system": "human coronavirus OC43", "test": "virus-induced cell killing", "system": "MRC-5", "setting": "maximum over 10 doses", "endpoint": "maximum inhibition", "value": "0%"}
{"SMILES": "COc1cc(C(=O)N2CC[C@@H](O)[C@@H](N)C2)cc2nc(-c3cc4ccccc4n3CC3CC3)n(C)c12", "target or system": "5-hydroxytryptamine receptor 3A (HTR3A, Homo sapiens, UniProt P46098)", "test": "intracellular calcium, antagonist, fluorescence", "endpoint": "IC50", "value": "1.26 µM"}
{"SMILES": "Cc1cc(C)c2sc(NC(=O)C3Cc4ccccc4O3)nc2n1 (stereo not shown)", "target or system": "Genome polyprotein NS2B-NS3 protease", "test": "inhibitor", "endpoint": "IC50", "value": "46 ± 3 µM"}
{"SMILES": "C[C@H]1CN(c2n[nH]c3nc(N[C@H]4CC[C@H](NS(=O)(=O)CCC(F)(F)F)CC4)ncc23)CCO1", "target or system": "Filamin-C (FLNC, Homo sapiens, UniProt Q14315)", "test": "biochemical", "endpoint": "IC50", "value": "≥ 20 µM"}
{"SMILES": "Cc1cc(Nc2ccc3ccccc3c2)n2ncnc2n1", "target or system": "MT-CYB, bc1 complex (Plasmodium falciparum, UniProt Q02768)", "test": "enzyme activity, inhibitor", "endpoint": "IC50", "value": "> 1 µM"}
{"SMILES": "Nc1c2c(nc3c1C(c1ccc(Cl)c(Cl)c1)c1ccc(OCC(=O)c4ccccc4)cc1O3)CCCC2 (stereo not shown)", "target or system": "Amyloid-beta precursor protein (APP, Homo sapiens, UniProt P05067)", "test": "Aβ42 self-aggregation, inhibitor, thioflavin T fluorescence", "endpoint": "IC50", "value": "1.41 µM"}
{"SMILES": "CCN1CCc2c(sc3[nH]c(=O)n(O)c(=O)c23)C1", "target or system": "Tripartite terminase subunit 3 C-terminal nuclease domain", "test": "endonuclease activity, inhibitor", "setting": "added: dsDNA substrate", "endpoint": "IC50", "value": "0.92 ± 0.28 µM"}
{"SMILES": "Nc1ncnc2c1ncn2[C@@H]1O[C@H](C[C@@H](N)CC[C@H](N)C(=O)O)[C@@H](O)[C@H]1O", "target or system": "mRNA cap guanine-N(7) methyltransferase (RNMT, Homo sapiens, UniProt O43148)", "test": "enzyme activity, inhibitor", "endpoint": "IC50", "value": "9.02 µM"}
{"SMILES": "COc1cccc(C(=O)Nc2nc3nc(C)cc(C)c3s2)c1", "target or system": "Genome polyprotein NS2B-NS3 protease", "test": "inhibitor", "endpoint": "IC50", "value": "16 ± 1 µM"}
{"SMILES": "Cc1sc2c(=O)n(O)c(=O)[nH]c2c1C", "target or system": "Tripartite terminase subunit 3 C-terminal nuclease domain", "test": "endonuclease activity, inhibitor", "setting": "added: dsDNA substrate", "endpoint": "IC50", "value": "0.61 ± 0.05 µM"}
{"SMILES": "COc1ccc(-c2cnc3[nH]c(C#Cc4cccnc4)cc3c2)cc1OC", "target or system": "AP2-associated protein kinase 1 (AAK1, Homo sapiens, UniProt Q2M2I8)", "endpoint": "IC50", "value": "> 10 µM"}
{"SMILES": "CN(C)C(=O)C(CCN1CCC(O)(c2ccc(Cl)cc2)CC1)(c1ccccc1)c1ccccc1", "target or system": "Calcium-activated potassium channel subunit alpha-1, with LRRC26 γ1 subunit (KCNMA1, Homo sapiens, UniProt Q12791)", "test": "BK channel conductance, inhibitor, inside-out patch clamp", "setting": "BKα/γ1, Vm 40 mV, nominally Ca2+-free", "endpoint": "IC50", "value": "3.26 ± 0.78 µM"}
{"note": "For quick reference, copied from above:"}
{"SMILES": "Cc1ccc(-c2nc(C[S+]([O-])CC(=O)N3CCN(c4ccc(Cl)cc4)CC3)c(C)o2)cc1 (stereo not shown)", "target or system": "Vero-E6", "test": "CellTiter-Glo ATP", "setting": "72 h, first round 5-point", "how to read": "relative to: DMSO 0%, hyamine -100%, more negative, more toxic", "endpoint": "maximum response", "value": "-17%"}
{"SMILES": "N=C(CS(=O)(=O)O)NCCCCCC(=O)NC(Cc1ccc(C(=O)c2ccccc2)cc1)C(N)=O (stereo not shown)", "target or system": "ywle", "endpoint": "IC50", "value": "0.5 ± 0.03 µM"}
